Published values collected from several papers.

| Structure (SMILES) | assay | test system | setting | endpoint | result |
| --- | --- | --- | --- | --- | --- |
| Cc1cc(Nc2cc3ncccc3c(N[C@@H]3C[C@H]4CC[C@@H](C3)N4CCC#N)n2)n[nH]1 | – | healthy human | oral, 10 mg single dose, 2 weeks | subjects with contact dermatitis | 0% |
| C[C@@H](Oc1ccc(S(C)(=O)=O)cc1C(=O)N1C[C@@H]2C[C@]2(c2cc(C(F)(F)F)on2)C1)C(F)(F)F | – | human | oral plus intravenous microtracer, dose not given | subjects with related GI disorders | 0% |
| CC(C)n1c(Nc2cccnc2)nc2cnc(Nc3ccc(N4CCN(C)CC4)cc3)nc21 | item: diastolic blood pressure increased | healthy human, male | oral, dose not given, CTCAE grade 1-3 | subjects with TEAE | 4.8% |
| CC(C)(C(=O)N1CCOc2c(C#N)cncc2C1)C(F)F | item: tandem gait test abnormal | human, both sexes | oral, 20 mg once daily, 14 days, multiple ascending dose | subjects with TEAE | 0% |
| C[C@H]1CN(C(=O)CC#N)[C@]12CCN(c1ncnc3[nH]ccc13)C2 | – | healthy human | oral, 6 mg single | subjects with Nausea | 12.5% |
| Cc1cc(-c2nccc3c2ccn3CC(=O)Nc2ccc(-c3cnccn3)cn2)ccn1 | – | human | SAD part, single 40 mg dose | subjects with Nausea TEAEs | 16.7% |
| CNC(=O)c1ccc(-c2cnc3ncc(Cc4ccc5ncccc5c4)n3n2)cc1F | – | healthy human subjects | oral, 400 mg, Diarrhea, grade 3, all causality, with: rifampicin 600 mg/day | subjects with adverse event | 0% |
| CN1CCN(c2cccc3c2CCN(C(=O)/C=C/c2c(-n4cnnn4)ccc(Cl)c2F)[C@@H]3C(=O)Nc2ccc(C(=O)O)cc2)C(=O)C1 | – | healthy human subjects | intravenous infusion, 3 mg/h, 5 days | subjects with treatment-related adverse event | 0% |

Repeated from above:
| Structure (SMILES) | assay | test system | setting | endpoint | result |
| --- | --- | --- | --- | --- | --- |
| CNC(=O)c1ccc(-c2cnc3ncc(Cc4ccc5ncccc5c4)n3n2)cc1F | – | healthy human subjects | oral, 400 mg, Diarrhea, grade 3, all causality, with: rifampicin 600 mg/day | subjects with adverse event | 0% |
